Measured values from different studies.
Each numbered part is a random draw from the data of one study; scales do not carry over between parts.
Chain of UniProt P57059 (whole entry, looked up): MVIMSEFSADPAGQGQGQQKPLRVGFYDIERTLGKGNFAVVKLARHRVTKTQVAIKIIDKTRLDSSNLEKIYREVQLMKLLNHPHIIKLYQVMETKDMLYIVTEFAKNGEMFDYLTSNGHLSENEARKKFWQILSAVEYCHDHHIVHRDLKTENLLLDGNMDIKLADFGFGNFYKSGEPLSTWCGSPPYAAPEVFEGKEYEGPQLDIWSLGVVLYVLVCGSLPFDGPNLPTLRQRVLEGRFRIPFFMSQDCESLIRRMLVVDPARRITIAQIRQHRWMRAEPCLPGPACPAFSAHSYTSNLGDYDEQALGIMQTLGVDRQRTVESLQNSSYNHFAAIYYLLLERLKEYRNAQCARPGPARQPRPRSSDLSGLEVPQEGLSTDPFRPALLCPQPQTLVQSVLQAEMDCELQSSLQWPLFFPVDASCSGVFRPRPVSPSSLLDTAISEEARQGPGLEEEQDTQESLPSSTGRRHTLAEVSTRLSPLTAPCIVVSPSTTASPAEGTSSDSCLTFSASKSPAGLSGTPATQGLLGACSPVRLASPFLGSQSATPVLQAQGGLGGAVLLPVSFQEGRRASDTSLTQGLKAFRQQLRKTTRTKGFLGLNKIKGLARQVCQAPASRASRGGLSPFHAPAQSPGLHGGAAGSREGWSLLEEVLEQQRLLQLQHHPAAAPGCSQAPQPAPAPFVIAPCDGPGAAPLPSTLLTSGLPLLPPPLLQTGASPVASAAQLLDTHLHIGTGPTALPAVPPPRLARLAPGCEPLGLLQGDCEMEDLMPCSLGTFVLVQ
Chain of UniProt O95819 (whole entry, looked up): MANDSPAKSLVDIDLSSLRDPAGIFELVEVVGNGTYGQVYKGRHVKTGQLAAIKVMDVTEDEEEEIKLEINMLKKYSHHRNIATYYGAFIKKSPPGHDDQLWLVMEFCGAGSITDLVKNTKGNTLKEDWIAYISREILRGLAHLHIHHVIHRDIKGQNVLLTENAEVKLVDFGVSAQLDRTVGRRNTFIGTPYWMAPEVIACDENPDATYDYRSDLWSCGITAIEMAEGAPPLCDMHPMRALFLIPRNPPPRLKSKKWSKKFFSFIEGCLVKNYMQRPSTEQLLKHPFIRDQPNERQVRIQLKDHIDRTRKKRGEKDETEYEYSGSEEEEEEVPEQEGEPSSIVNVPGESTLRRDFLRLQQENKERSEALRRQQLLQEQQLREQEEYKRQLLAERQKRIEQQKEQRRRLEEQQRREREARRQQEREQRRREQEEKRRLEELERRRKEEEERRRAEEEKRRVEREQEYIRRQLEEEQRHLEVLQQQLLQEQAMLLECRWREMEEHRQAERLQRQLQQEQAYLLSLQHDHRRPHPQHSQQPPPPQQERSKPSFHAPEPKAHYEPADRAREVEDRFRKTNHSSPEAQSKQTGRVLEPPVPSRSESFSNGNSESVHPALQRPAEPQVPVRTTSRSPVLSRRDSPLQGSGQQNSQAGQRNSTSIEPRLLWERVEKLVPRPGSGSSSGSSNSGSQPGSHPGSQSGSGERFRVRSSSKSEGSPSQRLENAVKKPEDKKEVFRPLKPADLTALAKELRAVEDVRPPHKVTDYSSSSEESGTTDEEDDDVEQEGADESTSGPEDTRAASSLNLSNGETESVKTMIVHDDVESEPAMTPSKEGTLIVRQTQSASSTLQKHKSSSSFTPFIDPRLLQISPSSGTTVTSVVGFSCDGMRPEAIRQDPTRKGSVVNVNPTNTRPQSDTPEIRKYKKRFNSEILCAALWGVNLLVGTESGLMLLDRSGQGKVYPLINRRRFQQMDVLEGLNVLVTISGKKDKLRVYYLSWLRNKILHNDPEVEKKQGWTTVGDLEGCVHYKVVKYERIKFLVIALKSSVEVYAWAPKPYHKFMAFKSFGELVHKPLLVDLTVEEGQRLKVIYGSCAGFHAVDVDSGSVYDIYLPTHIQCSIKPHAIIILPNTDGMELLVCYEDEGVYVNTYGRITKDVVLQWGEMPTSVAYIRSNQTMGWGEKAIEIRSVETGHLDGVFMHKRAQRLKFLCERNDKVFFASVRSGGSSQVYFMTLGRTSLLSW
Chain of UniProt Q9UK32 (whole entry, looked up): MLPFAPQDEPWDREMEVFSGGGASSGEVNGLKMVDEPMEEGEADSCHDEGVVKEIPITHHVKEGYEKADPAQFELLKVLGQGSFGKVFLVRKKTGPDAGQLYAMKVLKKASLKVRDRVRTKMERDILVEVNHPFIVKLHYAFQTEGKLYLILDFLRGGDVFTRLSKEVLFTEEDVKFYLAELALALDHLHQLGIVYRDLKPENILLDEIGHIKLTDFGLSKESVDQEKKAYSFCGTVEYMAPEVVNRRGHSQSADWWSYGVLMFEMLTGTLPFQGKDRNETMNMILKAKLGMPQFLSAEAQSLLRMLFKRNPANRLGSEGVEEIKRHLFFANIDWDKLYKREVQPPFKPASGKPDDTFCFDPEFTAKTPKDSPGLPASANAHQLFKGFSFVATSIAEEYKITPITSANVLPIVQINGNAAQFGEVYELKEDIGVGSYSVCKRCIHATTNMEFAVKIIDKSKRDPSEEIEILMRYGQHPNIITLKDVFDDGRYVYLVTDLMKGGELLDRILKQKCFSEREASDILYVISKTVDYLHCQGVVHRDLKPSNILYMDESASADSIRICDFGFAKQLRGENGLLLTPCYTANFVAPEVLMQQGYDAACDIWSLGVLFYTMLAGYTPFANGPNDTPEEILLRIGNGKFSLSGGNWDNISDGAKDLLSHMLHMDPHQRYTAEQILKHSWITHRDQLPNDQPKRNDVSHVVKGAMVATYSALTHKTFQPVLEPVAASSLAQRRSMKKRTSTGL
Chain of UniProt P11802 (whole entry, looked up): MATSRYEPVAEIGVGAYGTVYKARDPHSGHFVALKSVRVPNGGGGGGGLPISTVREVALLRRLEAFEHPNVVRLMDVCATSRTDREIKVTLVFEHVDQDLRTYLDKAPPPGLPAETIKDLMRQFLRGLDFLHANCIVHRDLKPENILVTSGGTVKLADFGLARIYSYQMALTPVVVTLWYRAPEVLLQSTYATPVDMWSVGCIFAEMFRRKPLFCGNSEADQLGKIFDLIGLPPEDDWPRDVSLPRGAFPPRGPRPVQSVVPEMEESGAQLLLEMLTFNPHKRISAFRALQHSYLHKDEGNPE
Chain of UniProt Q9H3Y6 (whole entry, looked up): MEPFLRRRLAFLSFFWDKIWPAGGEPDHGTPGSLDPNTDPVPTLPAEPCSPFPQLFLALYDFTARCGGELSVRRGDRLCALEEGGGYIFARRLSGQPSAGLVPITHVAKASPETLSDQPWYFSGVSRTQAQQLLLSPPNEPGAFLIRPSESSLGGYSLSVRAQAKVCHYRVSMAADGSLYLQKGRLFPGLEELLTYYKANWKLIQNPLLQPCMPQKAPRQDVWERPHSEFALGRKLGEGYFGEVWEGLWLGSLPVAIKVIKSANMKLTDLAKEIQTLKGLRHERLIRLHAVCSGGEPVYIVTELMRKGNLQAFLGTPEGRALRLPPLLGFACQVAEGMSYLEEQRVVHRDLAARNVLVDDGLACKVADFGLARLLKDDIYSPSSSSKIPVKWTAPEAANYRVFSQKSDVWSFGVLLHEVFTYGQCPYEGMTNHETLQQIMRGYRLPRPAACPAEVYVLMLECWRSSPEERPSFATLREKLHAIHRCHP
Chain of UniProt Q16659 (whole entry, looked up): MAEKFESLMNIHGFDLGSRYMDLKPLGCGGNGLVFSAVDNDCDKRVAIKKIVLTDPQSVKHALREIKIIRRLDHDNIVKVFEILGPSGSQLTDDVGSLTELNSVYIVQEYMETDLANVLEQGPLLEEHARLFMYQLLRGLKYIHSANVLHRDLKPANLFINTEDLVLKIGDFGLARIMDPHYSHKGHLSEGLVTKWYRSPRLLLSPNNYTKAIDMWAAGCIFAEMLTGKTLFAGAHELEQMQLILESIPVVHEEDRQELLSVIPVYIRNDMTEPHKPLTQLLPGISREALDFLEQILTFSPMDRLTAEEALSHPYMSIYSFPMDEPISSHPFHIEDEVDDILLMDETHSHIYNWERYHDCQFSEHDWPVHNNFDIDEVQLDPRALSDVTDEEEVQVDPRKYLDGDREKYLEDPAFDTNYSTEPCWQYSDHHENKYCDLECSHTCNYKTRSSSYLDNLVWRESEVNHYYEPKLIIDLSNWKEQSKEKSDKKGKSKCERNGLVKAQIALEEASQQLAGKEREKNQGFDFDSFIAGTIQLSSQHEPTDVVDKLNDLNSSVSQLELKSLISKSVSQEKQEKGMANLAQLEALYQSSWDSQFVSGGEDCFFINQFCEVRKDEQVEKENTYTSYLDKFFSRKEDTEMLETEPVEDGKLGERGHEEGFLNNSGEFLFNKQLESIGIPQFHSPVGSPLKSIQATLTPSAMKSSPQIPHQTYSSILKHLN
Chain of UniProt Q8IW41 (whole entry, looked up): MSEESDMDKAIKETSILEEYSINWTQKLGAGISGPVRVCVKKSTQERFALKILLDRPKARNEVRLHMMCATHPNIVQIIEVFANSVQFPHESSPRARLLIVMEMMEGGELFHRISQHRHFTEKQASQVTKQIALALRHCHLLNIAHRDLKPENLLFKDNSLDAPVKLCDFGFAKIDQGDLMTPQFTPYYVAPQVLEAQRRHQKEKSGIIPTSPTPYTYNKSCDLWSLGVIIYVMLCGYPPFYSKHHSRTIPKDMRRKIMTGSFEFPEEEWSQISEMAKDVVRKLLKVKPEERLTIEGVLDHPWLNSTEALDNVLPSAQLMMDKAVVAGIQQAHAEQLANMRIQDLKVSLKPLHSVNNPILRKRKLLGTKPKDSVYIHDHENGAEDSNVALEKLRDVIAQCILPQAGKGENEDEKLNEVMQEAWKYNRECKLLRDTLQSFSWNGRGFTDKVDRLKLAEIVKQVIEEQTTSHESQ
Chain of UniProt P06493 (whole entry, looked up): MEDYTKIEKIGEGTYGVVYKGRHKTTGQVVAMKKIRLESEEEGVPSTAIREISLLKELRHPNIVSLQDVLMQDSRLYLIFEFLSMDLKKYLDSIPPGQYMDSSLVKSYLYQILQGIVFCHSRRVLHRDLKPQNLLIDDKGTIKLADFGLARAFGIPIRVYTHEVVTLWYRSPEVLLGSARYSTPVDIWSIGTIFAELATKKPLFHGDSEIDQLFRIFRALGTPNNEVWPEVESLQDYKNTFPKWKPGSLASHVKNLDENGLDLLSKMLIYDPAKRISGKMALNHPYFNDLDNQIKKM

Sample 1
Organism: Sarcocystis neurona
Read-out: parasite growth
Tested at: 10 µM
SMILES | inhibition [%]
CC(=O)O[C@]1(C(C)=O)CC[C@H]2[C@@H]3C=C(C)C4=CC(=O)CC[C@]4(C)[C@H]3CC[C@@]21C | 6.2
Cc1[nH]cnc1CN1CCc2c(c3ccccc3n2C)C1=O | -32
CCC(=O)OCC(=O)[C@@]1(OC(=O)CC)[C@@H](C)C[C@H]2[C@@H]3CCC4=CC(=O)C=C[C@]4(C)[C@@]3(Cl)[C@@H](O)C[C@@]21C | -24.6
CC#C[C@]1(O)CC[C@H]2[C@@H]3CCC4=CC(=O)CCC4=C3[C@@H](c3ccc(N(C)C)cc3)C[C@@]21C | 8.4
CN(C)CCOC(c1ccccc1)c1ccccc1 | -24.5
COc1cc(C)c(Cc2cnc(N)nc2N)cc1OC | 59.6
CCCc1nc(C(C)(C)O)c(C(=O)OCc2oc(=O)oc2C)n1Cc1ccc(-c2ccccc2-c2nnn[nH]2)cc1 | 3.7
CCCCCCNC(=O)n1cc(F)c(=O)[nH]c1=O | 78.4
Nc1ccn([C@@H]2O[C@H](CO)[C@@H](O)[C@@H]2O)c(=O)n1 | -40.9
CO[C@@H]1[C@@H](O[C@@H]2O[C@H](C)[C@@H](O[C@H]3C[C@@](C)(O)[C@@H](OC(=O)CC(C)C)[C@H](C)O3)[C@H](N(C)C)[C@H]2O)[C@@H](CC=O)C[C@@H](C)[C@@H](O)/C=C/C=C/C[C@@H](C)OC(=O)C[C@H]1OC(C)=O | 34.7
CC1CCN(CCCC(=O)c2ccc(F)cc2)CC1.Cl | -20.6
CN1CCN(CC/C=C2/c3ccccc3Sc3ccc(S(=O)(=O)N(C)C)cc32)CC1 | 65.9
CCCCC[C@H](O)/C=C/[C@H]1[C@H](O)CC(=O)[C@@H]1CCCCCCC(=O)O | -31.7

Sample 2
Species: human
Matrix: microsomes or S9
Tested at: 2 µM
Time: 0.5 h
Compound | remaining compound [%]
CCCn1nccc1-c1csc(S(=O)(=O)NC(C)(C)CC)c1 | 0.116
CC1=CC[C@H]2C(C)(C)[C@H](O)CC[C@]2(C)[C@H]1COc1ccc2ccc(=O)oc2c1 | 46.1
Cc1ccc(NC(=O)N2Cc3c(sc4c3CCCC4)-n3cccc3C2c2ccc(N(C)C)cc2)c(C)c1 (stereo not shown) | 18.9
COC(=O)c1c(CCc2ccc(OC)cc2)nc(CCc2ccccc2)c(O)c1C(=O)OC | 5.38
CC1=C2C(CCS2(=O)=O)CC2(C1)C(=O)OC(C)(C)OC2=O (stereo not shown) | > 99
COC(=O)c1c(SC)nn2c(=S)[nH]cnc12 | 73.5
CC1=CCC(c2nnco2)C(c2ccc(F)cc2)C1 (stereo not shown) | 29.5
CCN1CCN(C(=O)c2ccc3c(c2)N(Cc2cccc(Cl)c2)C(=O)c2ccccc2[S+]3[O-])CC1 (stereo not shown) | 32.3

Sample 3
SMILES: N#Cc1cnc2cnc(NCc3cccnc3)cc2c1Nc1ccc(F)c(Cl)c1
Read-out: enzyme activity
Action: inhibitor
Tested at: 0.5 µM
Baseline: control
target | remaining activity
DYRK3 (Homo sapiens, UniProt O43781) | 96.3%
EPHB4 (Homo sapiens, UniProt P54760) | 85.2%
Cyclin-dependent kinase 4, with cyclin D3 (CDK4, Homo sapiens, UniProt P11802) | 101%
Cyclin-dependent kinase 1, with cyclin B (CDK1, Homo sapiens, UniProt P06493) | 84.5%
EPHA4 (Homo sapiens, UniProt P54764) | 92.8%
PRKACG (Homo sapiens, UniProt P22612) | 115%
SRMS (Homo sapiens, UniProt Q9H3Y6) | 104%
RPS6KA5 (Homo sapiens, UniProt O75582) | 102%
BLK (Homo sapiens, UniProt P51451) | 99.9%
STK17A (Homo sapiens, UniProt Q9UEE5) | 79.6%
Cyclin-dependent kinase 6, with cyclin D3 (CDK6, Homo sapiens, UniProt Q00534) | 88.8%
EPHB1 (Homo sapiens, UniProt P54762) | 93.1%
MAPKAPK3 (Homo sapiens, UniProt Q16644) | 94%
RPS6KA6 (Homo sapiens, UniProt Q9UK32) | 104%
CAMK2B (Homo sapiens, UniProt Q13554) | 97.4%
PHKG1 (Homo sapiens, UniProt Q16816) | 92%
MAP4K4 (Homo sapiens, UniProt O95819) | 44.4%
WNK3 (Homo sapiens, UniProt Q9BYP7) | 92.4%
HIPK4 (Homo sapiens, UniProt Q8NE63) | 93.1%
STK16 (Homo sapiens, UniProt O75716) | 93.8%
AXL (Homo sapiens, UniProt P30530) | 103%
HIPK2 (Homo sapiens, UniProt Q9H2X6) | 93.2%
PDPK1 (Homo sapiens, UniProt O15530) | 85.3%
TSSK2 (Homo sapiens, UniProt Q96PF2) | 100%

Sample 4
SMILES: c1ccc(N2CCN(Cc3nc4ccccc4[nH]3)CC2)nc1
Tested at: 1 µM
target | test | remaining binding [%]
LRRK2 (Homo sapiens, UniProt Q5S007, G2019S) | binding, competition with immobilised ligand | 100
ALK (Homo sapiens, UniProt Q9UM73, C1156Y) | cell-free assay, competition with immobilised ligand | 100
Myosin-IIIb (MYO3B, Homo sapiens, UniProt Q8WXR4) | binding, competition with immobilised ligand | 95
KDR (Homo sapiens, UniProt P35968) | cell-free assay, competition with immobilised ligand | 100
NLK (Homo sapiens, UniProt Q9UBE8) | binding, competition with immobilised ligand | 100
MERTK (Homo sapiens, UniProt Q12866) | binding, competition with immobilised ligand | 90
ACVR2A (Homo sapiens, UniProt P27037) | cell-free assay, competition with immobilised ligand | 100
MAPKAPK5 (Homo sapiens, UniProt Q8IW41) | binding, competition with immobilised ligand | 100
MAPK6 (Homo sapiens, UniProt Q16659) | binding, competition with immobilised ligand | 100
RIOK1 (Homo sapiens, UniProt Q9BRS2) | binding, competition with immobilised ligand | 86
MAPK1 (Homo sapiens, UniProt P28482) | binding, competition with immobilised ligand | 100
MAPK7 (Homo sapiens, UniProt Q13164) | binding, competition with immobilised ligand | 100
Tyrosine-protein kinase ABL1, non-phosphorylated (ABL1, Homo sapiens, UniProt P00519, Q252H) | binding, competition with immobilised ligand | 93
CDKL2 (Homo sapiens, UniProt Q92772) | binding, competition with immobilised ligand | 100
SRPK3 (Homo sapiens, UniProt Q9UPE1) | binding, competition with immobilised ligand | 100
DCLK2 (Homo sapiens, UniProt Q8N568) | binding, competition with immobilised ligand | 98
NEK11 (Homo sapiens, UniProt Q8NG66) | binding, competition with immobilised ligand | 100
PRKX (Homo sapiens, UniProt P51817) | cell-free assay, competition with immobilised ligand | 100
SIK1 (Homo sapiens, UniProt P57059) | competition binding | 100
PKN2 (Homo sapiens, UniProt Q16513) | binding, competition with immobilised ligand | 100
CAMK2G (Homo sapiens, UniProt Q13555) | binding, competition with immobilised ligand | 100
DCLK1 (Homo sapiens, UniProt O15075) | binding, competition with immobilised ligand | 100
PKMYT1 (Homo sapiens, UniProt Q99640) | binding, competition with immobilised ligand | 100
LATS2 (Homo sapiens, UniProt Q9NRM7) | binding, competition with immobilised ligand | 75
STK24 (Homo sapiens, UniProt Q9Y6E0) | binding, competition with immobilised ligand | 100

For quick reference, copied from above (sample 4):
target | test | remaining binding [%]
MERTK (Homo sapiens, UniProt Q12866) | binding, competition with immobilised ligand | 90
ACVR2A (Homo sapiens, UniProt P27037) | cell-free assay, competition with immobilised ligand | 100
MAPKAPK5 (Homo sapiens, UniProt Q8IW41) | binding, competition with immobilised ligand | 100
MAPK6 (Homo sapiens, UniProt Q16659) | binding, competition with immobilised ligand | 100
RIOK1 (Homo sapiens, UniProt Q9BRS2) | binding, competition with immobilised ligand | 86
